# Published values from different studies.
# Parts stem from different laboratories: compare values within a part only. Changes are numbered by the printed parent chain.

# Block 1 — method: universal PBM; form: double-stranded DNA, one strand shown; sample: in vitro; concentration: not given; direction: higher = stronger binding
# Target: Sal-like protein 4, full length isoform B (SALL4, Homo sapiens, UniProt Q9UJQ4-2, residues 1-616)
# Setting: 8-mer, flanks averaged, mean of replicates
Oligonucleotide,E-score
CCTGTAAC,0.0377
AATATAAG,0.39
AATCGCAA,-0.00452
GCCGACTA,-0.138
CTATCCTA,-0.00437
TAGAGTAA,0.15
GACAAAAA,0.234
CTAACCAG,-0.0406
ATTTGGTC,-0.00974
GCTATCAA,0.0728
CAAAGTTC,-0.114
GTTAAAGA,0.119
ATCCACTG,-0.111
ACTAGCCC,-0.125
ACTATCCT,0.143
GTTGGTGA,-0.0978
CGTAAGAC,-0.0112
CCGATTGC,-0.0803
ACATCCTA,0.12
CAAAAATA,0.355
ACAGGATC,-0.138
CGGGCGCA,-0.332
ACTGGTAC,-0.124
AGCCCGAT,-0.159
CTCCGGAG,-0.286

# Block 2 — method: protein-binding microarray; form: double-stranded DNA, one strand shown; sample: in vitro; concentration: 940 nM top; setting: 60-bp whole probe; with: salmon DNA 0.4 mg/ml; relative to: random background probes; direction: higher = stronger binding; shared flanks, not repeated: GCCTAGCAC … GTCTTGATTCGCTTGACGCTGCTG
# Target: Interferon regulatory factor 5, full length, phosphomimetic (IRF5, Homo sapiens, UniProt Q13568-2, residues 1-514, S451D/S453D/S456D/S462D)
Oligonucleotide,fitted relative affinity [z-score]
TTAGGACTGGGCCTGGGTTAGTGCTAG,-0.647
GACGGTATCCTTATCCCGACGTGCTAG,0.44
TTATGTATCGGGTATCGGTTAGTGCTA,4.47
TCACATTTTCATTTTGTACTGTGCTAG,1.36
GACGATATCGGGTATTGAGACGTGCTA,-0.0132
TCATTTGTATTTTTGATACTGTGCTAG,0.487
GACGGTTTCGACTTTCAGGACGTGCTA,7.16
GTCGATTTCAGACTGGAGACGTGCTAG,-0.107
CTGCATTACAGCTATTTTTAGGTGCTA,0.443
TTAGATAACAGTATCGATTAGTGCTAG,4.09
TTAGGTTTCGGTTTCGGGTAGTGCTAG,15.7
TTAGATTTAAGTTCCGATTAGTGCTAG,1.03
TTAGGACTGCACTATCGGTTAGTGCTA,-0.0612
TTAGGGTTCGGTTCCGGTTAGTGCTAG,1.46
GACGATATCGGTCTCGAGACGTGCTAG,0.939
TCAGGTCTCGCTTCATCACTGTGCTAG,1.89

# Block 3 — target: CCNA2, cyclin fold, Cln2 fusion (human); method: yeast growth competition, sequencing; sample: yeast; setting: strong parent motif; relative to: not given; direction: higher = stronger binding
# Starting sequence: E2F1 docking peptide (human); PPVKRRLDLETDH
Variant,normalised enrichment score
PPNKRRLDLETDH [V3N],1.31
PPQKRRLDLETDH [V3Q],0.701
PPVKIRLDLETDH [R5I],0.0232
PPVKRRLDLEADH [T11A],4.21
PPVKRCLDLETDH [R6C],2.81
PPVKKRLDLETDH [R5K],1.05
PPVKRRLDLETDD [H13D],4.48
PPVYRRLDLETDH [K4Y],1.62
CPVKRRLDLETDH [P1C],3.69
PPVKRRHDLETDH [L7H],-0.147
PPVQRRLDLETDH [K4Q],2.54
PPVRRRLDLETDH [K4R],5.64
PPVKERLDLETDH [R5E],0.439
PPVKRRLDLETLH [D12L],4.18
PPVLRRLDLETDH [K4L],0.331
PPVKRRWDLETDH [L7W],0.785
PPSKRRLDLETDH [V3S],2.87
PPVKARADLETDH [R5A L7A],-0.143
PPVKRRLDLRTDH [E10R],3.34
PPVKRELDLETDH [R6E],1.32
PPVSRRLDLETDH [K4S],3.07
PPCKRRLDLETDH [V3C],4.83
PPVKRRLDLETDA [H13A],4.02
PPVKRRLDLEFDH [T11F],6.17

# Block 4 — method: RNA Bind-n-Seq; form: RNA; sample: in vitro; concentration: 365 nM; relative to: no-protein control; direction: higher = stronger binding
# Target: RNA binding protein fox-1 homolog 2, RRM domain, GST-SBP tag (RBFOX2, Homo sapiens, UniProt O43251-10, residues 100-194)
# Setting: natural RNA segment, single round, ends assumed
# Construct (chain): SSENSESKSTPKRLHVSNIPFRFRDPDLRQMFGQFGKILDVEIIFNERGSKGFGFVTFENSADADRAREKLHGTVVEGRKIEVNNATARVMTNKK
Oligonucleotide,RBNS enrichment (R)
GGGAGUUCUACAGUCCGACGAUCCCCAUGAUUCAGCCACGGACUCCAAUGCCCAGCUCCUCUCCCCAAAACAAUCCCGACAAUCCCUUAUCCCUACCCCAACCCUUUGCGGCUCUGUACACAUUUUUAAACCUUGGAAUUCUCGGGUGCCAA,1.2
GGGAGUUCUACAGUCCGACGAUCGAUAAGUUUGAAAGGAAACUGCUAUUGAACUUAAGCAUCUCUAGCAGAGCAAUUUGAUCAGUAUAUAAAACCCUAGGAUGUGCUAGGUCUAAGAUGGAUUAAACAAGUAUUGGAAUUCUCGGGUGCCAA,0.584
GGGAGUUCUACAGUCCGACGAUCUUUCAUUCUUUCUAGUGUACUAGAUCCAGAAAUUUAGUGUGAUGCCCUGCUUUCUCUUUUCUUUGACUUAACAUUGGUUUCUGAAAGAAUCUUUGCUACCUAGAACCUGCUGGAAUUCUCGGGUGCCAA,0.426
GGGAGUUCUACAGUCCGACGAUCUUUGUUUUCAUAGUUUUGCACUUUUAUAGCCUAUUUUUGAAGAUUAACACAUUUGCAAGAUGAUUGACUCAAUCUUUGCCUAAUCCAAUGAGUGUUACAGAGAGCUUGCUUGGAAUUCUCGGGUGCCAA,0.435
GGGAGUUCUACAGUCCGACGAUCCUAUUACAAUCACUGUGUGUGUGUCUUUUCUUAGCAAAGGCGUUUUAAAACUUGAGCCUGGACCUUGGGGUCCUGUAGUGUGUGGAUUCCAAGGCCUUGCCCUCAGAGCAUGGAAUUCUCGGGUGCCAA,3.64
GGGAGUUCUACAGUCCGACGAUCCCUUCUGGGUGCUCUACACCUCAGGUUACCAGGCCUGAGGCAUCUCAGCCAAGCUUGUUUCCUGCUCUGAGGCUUGUGGGGUGGGAGCCAGAGUGGAGGUCGGUGAAAUAUGGAAUUCUCGGGUGCCAA,0.829
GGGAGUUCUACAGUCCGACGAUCGCCAUAAUUCCACCAUCAUACAGAUCAGGCAGUGUUUAAAAUGAUGGUAGGUAGCACAGUGGACAGUCUUUGAUCAUCAUGUAGAAUAUGGCUAUGAAUCAGGAAAGAGAUGGAAUUCUCGGGUGCCAA,0.989
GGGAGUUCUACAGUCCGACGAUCCCGAUUUUUGAAUGUGAUUUUAAAGAGUGGAAAAUGAGACUAUGCGUUUUUAUAAAAAAUGGUGCCUACUCCUCGCUGUCUCAGACUCUUUGUGCCUGGUGACUAUUUUUUGGAAUUCUCGGGUGCCAA,0.902
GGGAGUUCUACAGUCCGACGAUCUGGGUAGUGUGUGACUGUGGCUGUACUGUAUAGUGAACAUAGUUGGCAUAUCUUUGUUUGAAGUUUGUUGGUGAUUCCACCAAACUGGUGUAAAAAACAAAAACAAAAAAUGGAAUUCUCGGGUGCCAA,0.85
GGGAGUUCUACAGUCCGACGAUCUCACUGCUUCUUGCCAGUUAUGACUGUCAUUCCCUUCGCACCAGCUGUACCACUCCCAGAGGUCUGAGCAGGCCACAGAUAGCCCCCACCUUGCAGAGCAGGAAGUUUAGUGGAAUUCUCGGGUGCCAA,0.607
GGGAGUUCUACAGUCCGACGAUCUAUUCCAGCGAUGUGACUUUUUUCAGAAUAUUUCUUGGAAUCAUAUUCAGAGUCUGGGGCUGUGUGUUGAGCAGCCUUAAGGAUGCUAGACACUCAUUUAGUGCCCAGGGUGGAAUUCUCGGGUGCCAA,0.236
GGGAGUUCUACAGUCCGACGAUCGCUCAGCCUGCUCUUUCAUAGUCAAGCUUGCUCAUUUAAUUUUUUUAUAAUCAUAUCCAGUAAACGGCCUUGUGUCAUAGUAAGAUAAAAUGGUAUCUUACUGACUCUGUUGGAAUUCUCGGGUGCCAA,0.357

# Block 5 — method: protein binding microarray; form: double-stranded DNA, one strand shown; sample: in vitro; concentration: not given; relative to: not given; direction: higher = stronger binding
# Target: Histone acetyltransferase KAT6A, winged helix 1, GST fusion (KAT6A, Homo sapiens, UniProt Q92794, residues 1-85)
# Setting: 8-mer, flanks averaged, mean of 2 arrays, mostly near background
# Residues (chain): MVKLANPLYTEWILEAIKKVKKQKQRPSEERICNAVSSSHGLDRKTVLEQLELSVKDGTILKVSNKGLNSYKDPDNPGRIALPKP
Oligonucleotide,E-score
GGCTCCAA,-0.0206
TCTACAGA,-0.089
ACTGAGTA,-0.0816
TAGTCTCA,-0.182
AGCTGGTG,-0.197
CTCGTACA,-0.0727
ACGTGAAC,-0.0765
AAACCATA,0.0473
CCCAAAGA,-0.315
ACCAATCA,-0.32
AAAGGCAT,-0.141
ACCTGGAA,-0.207
AGGTGAAG,-0.21
ACTCTCCT,-0.182
AGAGCGAT,-0.199
CGTCGCAG,0.252
ATGAGTTC,-0.0286
ACGTATCC,-0.0965
TCTAGTAA,0.117
GAGAGTGA,-0.088
TCCTGCCA,-0.169
AGTAGGAG,-0.266
CCCGCATA,0.36
GTCAGGCA,-0.0967
AATAATAA,-0.141

# Block 6 — method: DHFR PCA, deep sequencing; sample: yeast; with: (+)-ABA 710 µM; relative to: wild-type fitted maximum; direction: higher = stronger binding
# Target: ABI1, truncated, D143A, DHFR fusion (Arabidopsis thaliana)
# Setting: methotrexate growth selection, single substitutions
# Starting sequence: PYL1, truncated, DHFR fusion (Arabidopsis thaliana); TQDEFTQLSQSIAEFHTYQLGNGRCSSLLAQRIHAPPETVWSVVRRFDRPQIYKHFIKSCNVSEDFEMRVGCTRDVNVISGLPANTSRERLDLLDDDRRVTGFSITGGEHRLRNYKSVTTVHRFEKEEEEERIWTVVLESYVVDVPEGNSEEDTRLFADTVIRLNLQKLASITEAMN
Variant,relative binding score
V118N,88.5%
F66C,96.5%
A175D,97%
T86K,97.5%
D65V,90.4%
I105Y,-27%
F103Q,-9.23%
L28K,96.5%
H55K,100%
R90N,85.7%
R155P,-9.28%
D75E,98.3%
G21I,99.1%
E147C,95.9%
L112V,62.6%
G21A,104%
T120A,46.2%
